Results of several laboratories.
Lines come from different studies, so protocols differ. ± marks the error that the study gave. Bridges are numbered along the chain shown (N, C = ends). Where no end group is shown, it is not given here.

`C[C@H](NC(=O)[C@@H]1CCCN1C(=O)[C@H](CC(N)=O)NC(=O)[C@H](Cc1c[nH]c2ccccc12)NC(=O)[C@@H](N)CCCNC(=N)N)C(=O)N[C@H](C(=O)NCC(=O)N[C@@H](CCCCN)C(=O)N[C@@H](Cc1c[nH]c2ccccc12)C(=O)N[C@@H](CCC(=O)O)C(=O)O)[C@@H](C)O` has a Tm of 61.6 ± 0.1 °C (circular dichroism; phosphate buffer; pH 6.5).
Under ADP-stimulated respiration, `H-HGLASTLTRWAHYNALIRAFGGG-NH2 (C-amide)` is recorded as “no effect” (rat, brain homogenate; intravenous, 40 µg/100 g, 3.5 h, with: succinate + rotenone, 200 µM ADP).
The concentration of `Cc1c(P(=S)(c2ccccc2)c2ccccc2)n2ccccc2[n+]1C/C=C/c1ccccc1` is reported as 25 ng/g (mouse, brain; intraperitoneal, 10 mg/kg, 30 min).
`c1cc2ccc3cccc4ccc(c1)c2c34` gave a concentration of 51.2 ± 12.3 ng/g (male Wistar rats, cecum; oral, 4 mg/kg, 24 h).
`O=c1[nH]c(Cc2ccccn2)nc2c1cnn2C1CCOCC1` gave a half-life of 62.4 min (healthy men, extensive metabolizers, plasma; oral, 10 mg single dose, tablet, geometric mean).
The tissue uptake of `CC(=O)N[C@H](CCCCNC(=O)C(C)F)C(=O)N[C@@H](CS)C(=O)N[C@@H](CS)C(=O)N[C@@H](CCC(=O)O)C(=O)N[C@@H](Cc1c[nH]cn1)C(=O)N[C@H](Cc1ccccc1)C(=O)N[C@@H](CCCNC(=N)N)C(=O)N[C@@H](Cc1c[nH]c2ccccc12)C(=O)N[C@@H](CS)C(=O)N[C@@H](CCCNC(=N)N)C(=O)N1CCC[C@H]1C(=O)N[C@H](C(N)=O)C(C)C` (some centres unmarked) [fluorine-18 labelled] is reported as 0.06 ± 0.01 %ID/g (C57BL/6 mice, male, B16-F10 tumour, pancreas; intravenous, 4 h).
For `CC(C)C[C@@H](NC(=O)[C@@H](Cc1ccccc1)NC(=O)[C@H](N)Cc1ccccc1)C(=O)N[C@H](CCCCN)C(=O)N1CCC(N)(C(=O)O)CC1`, “total dose recovery, urine and feces” read 91.8% (refers to: total radioactivity; healthy human subjects; intravenous, time not given).
`c1cc([C@H]2CC[C@]3(CC2)OO[C@]2(O3)C3CC4CC(C3)CC2C4)ccc1OCCN1CCOCC1` has a plasma concentration of over 20 ng/mL (human, plasma; oral, 200 to 800 mg once daily, 24 h post-dose on day 3 of 3 days, multiple rising dose).
`FFPKVAGVAAKVLKKFCTISKKC (disulfide 17-23 (inferred)) (disulfide)` has an HC50 of over 128 µM (haemolysis; horse erythrocytes; 2 h, 37 °C).
`CC[C@H](C)[C@H](NC(=O)[C@H](Cc1c[nH]c2ccccc12)NC(=O)[C@@H]1CSSC[C@H](NC(=O)[C@H](CCC(=O)O)NC(=O)[C@H](Cc2c[nH]c3ccccc23)NC(=O)[C@H](CCC(N)=O)NC(=O)COCCOCCNC(=O)[C@H](CCC(=O)O)NC(=O)[C@H](Cc2c[nH]cn2)NC(=O)[C@@H](N)Cc2c[nH]cn2)C(=O)N2CCC[C@H]2C(=O)N[C@@H](Cc2ccc(O)cc2)C(=O)NCC(=O)N[C@@H](CC(C)C)C(=O)N1)C(=O)N[C@@H](CCC(N)=O)C(=O)O` [technetium-99m labelled] gave a distribution half-life of 8.6 ± 1.9 min (male C57BL/6 mouse, blood; intravenous).
`CC(C)[C@H](NC(=O)CNC(=O)[C@H](CCCCN)NC(=O)[C@@H]1CCCN1C(=O)[C@H](CC(=O)O)NC(=O)CNC(=O)[C@H](CCCCN)NC(=O)[C@@H]1CCCN1C(=O)[C@H](CC(=O)O)NC(=O)c1ccc2c(c1)C(=O)OC21c2ccc(O)cc2Oc2cc(O)ccc21)C(=O)N[C@H](C(=O)N[C@H](C(=O)N[C@H](C(=O)N[C@H](C(=O)N[C@H](C(=O)N[C@H](C(=O)N[C@H](C(=O)N[C@H](C(=O)N[C@H](C(=O)NCC(=O)N[C@@H](CCCCN)C(=O)NCC(=O)N[C@@H](CC(=O)O)C(=O)N1CCC[C@H]1C(=O)N[C@@H](CCCCN)C(=O)N1CCC[C@H]1C(=O)N[C@@H](CC(=O)O)C(=O)O)[C@@H](C)O)C(C)C)[C@@H](C)O)C(C)C)[C@@H](C)O)C(C)C)[C@@H](C)O)C(C)C)[C@@H](C)O`: “apparent skin permeability” “no effect” (no effect; Sprague-Dawley rat, excised skin; 50 µmol/L, 37 °C, FAM-labelled CPP conjugate; reference: free FAM).
`C=C1CC[C@@H]2[C@](C)(CO)[C@H](O)CC[C@@]2(C)[C@@H]1C/C=C1/C(=O)OC[C@H]1O` gave a chromatographic logD of 1.4 (HPLC; pH 7.4).
`[123I]c1cncc(OC[C@@H]2CCN2)c1` has a tissue/plasma ratio of 27.5 (SPECT; human, fusiform gyrus; intravenous bolus, 7.35 mCi; reference: tissue over plasma).
`[O-][S+]1CCc2nc(N3CCC(c4ncc(Cl)cn4)CC3)nc(NC3(CO)CCC3)c21` (centres unmarked) — result for “Cmax at steady state”: 460 nM (human, idiopathic pulmonary fibrosis, plasma; oral, 18 mg twice daily, day 14, geometric mean).
For `CCCCCOc1ccc(-c2ccc(-c3ccc(C(=O)N[C@H]4C[C@@H](O)[C@@H](O)NC(=O)[C@@H]5[C@@H](O)[C@@H](C)CN5C(=O)[C@H]([C@@H](C)O)NC(=O)[C@H]([C@H](O)[C@@H](O)c5ccc(O)cc5)NC(=O)[C@@H]5C[C@@H](O)CN5C(=O)[C@H]([C@@H](C)O)NC4=O)cc3)cc2)cc1`, the Vss was 0.72 L/kg (population PK model; patients aged sample B to < sample C years; intravenous, 200 mg loading, 100 mg once daily, mean, weight-corrected).
For `O[C@H]1CCCN[C@@H]1CCCn1cnc2c(Cl)c(Cl)ccc21`, the AUC(0-last) was 594 ng·h/mL (human, plasma; oral, 100 mg single dose, capsule, geometric mean).
`Cn1cc(C2=C(c3cn(C4CCN(Cc5ccccn5)CC4)c4ccccc34)C(=O)NC2=O)c2ccccc21` has a Cav,ss of 275 nM (phase I cancer patients, plasma; oral, 250 mg once daily, cycle 1 day 22, geometric mean, with: erlotinib 150 mg daily).
For `C#Cc1cccc2c1[nH]c1cnc(C(=O)OC(C)(C)C)cc12`, the brain concentration was 91.4 ± 29.4 nM (Wistar rat, brain; intraperitoneal, 10 mg/kg single dose on day 4, 20 min after dose, vehicle for 3 days before).
With `CO[C@H]1C[C@@H]2CC[C@@H](C)[C@@](O)(O2)C(=O)C(=O)N2CCCC[C@H]2C(=O)O[C@H]([C@H](C)C[C@@H]2CC[C@@H](OCCO)[C@H](OC)C2)CC(=O)[C@H](C)/C=C(\C)[C@@H](O)[C@@H](OC)C(=O)[C@H](C)C[C@H](C)/C=C/C=C/C=C/1C` the CL/F was 13.3 L/h (human cancer patients, whole blood; oral, 5 mg once daily, with: paclitaxel).
For `COc1ccc(C[C@@H]2NC(=O)[C@H]([C@@H](C)O)NC(=O)[C@@H]3[C@@H]4CCN3C(=O)[C@@H]3Cc5cn(c6ccc(F)cc56)CCCCCCN(Cc5ccc(cc5)CCNC(=O)[C@]5(C)CCCN5C2=O)C(=O)CCC(=O)N[C@@H](C)C(=O)N[C@H](CNC(=O)CCCCC[N+](C)(C)C)C(=O)N[C@@H](Cc2cccc(c2)CNC(=O)CO4)C(=O)N3)cc1`, the CL/F was 25 L/h (fasted healthy humans, plasma; oral, 10 mg single dose, with 1800 mg Labrasol, geometric mean).
Under “brain uptake clearance Kin”, `N[C@H](Cc1ccc(F)cc1)C(=O)O` is recorded as 8.9 mL/100 g/min (in situ brain perfusion; CF-1 mice, mdr1a(-/-); 1 µM, 60-180 s).
`CCNc1nc(Cl)nc(NCC)n1` has a remaining amount of 45.1 ± 13% (LC-MS/MS; herbicide solution; 2 h, 23 °C, with: 254 nm UV exposure).
`CN[C@@](C)(C[18F])C(=O)O` gave a tissue uptake of 3.9 ± 0.5 %ID/g (SCID mouse MDA-MB-468 xenograft, heart; 120 min, post injection).

Repeated from above:
`CC(C)[C@H](NC(=O)CNC(=O)[C@H](CCCCN)NC(=O)[C@@H]1CCCN1C(=O)[C@H](CC(=O)O)NC(=O)CNC(=O)[C@H](CCCCN)NC(=O)[C@@H]1CCCN1C(=O)[C@H](CC(=O)O)NC(=O)c1ccc2c(c1)C(=O)OC21c2ccc(O)cc2Oc2cc(O)ccc21)C(=O)N[C@H](C(=O)N[C@H](C(=O)N[C@H](C(=O)N[C@H](C(=O)N[C@H](C(=O)N[C@H](C(=O)N[C@H](C(=O)N[C@H](C(=O)N[C@H](C(=O)NCC(=O)N[C@@H](CCCCN)C(=O)NCC(=O)N[C@@H](CC(=O)O)C(=O)N1CCC[C@H]1C(=O)N[C@@H](CCCCN)C(=O)N1CCC[C@H]1C(=O)N[C@@H](CC(=O)O)C(=O)O)[C@@H](C)O)C(C)C)[C@@H](C)O)C(C)C)[C@@H](C)O)C(C)C)[C@@H](C)O)C(C)C)[C@@H](C)O`: “apparent skin permeability” “no effect” (no effect; Sprague-Dawley rat, excised skin; 50 µmol/L, 37 °C, FAM-labelled CPP conjugate; reference: free FAM).
For `CCCCCOc1ccc(-c2ccc(-c3ccc(C(=O)N[C@H]4C[C@@H](O)[C@@H](O)NC(=O)[C@@H]5[C@@H](O)[C@@H](C)CN5C(=O)[C@H]([C@@H](C)O)NC(=O)[C@H]([C@H](O)[C@@H](O)c5ccc(O)cc5)NC(=O)[C@@H]5C[C@@H](O)CN5C(=O)[C@H]([C@@H](C)O)NC4=O)cc3)cc2)cc1`, the Vss was 0.72 L/kg (population PK model; patients aged sample B to < sample C years; intravenous, 200 mg loading, 100 mg once daily, mean, weight-corrected).
